Measured values of several laboratories.
Compare with care: the assays were run in different laboratories.
Target: Serine/threonine-protein kinase OSR1 (OXSR1, Homo sapiens, UniProt O95747)

SMILES | assay | test system | setting | how to read | endpoint | value
Cc1ccc(-c2c(/C=C(\C#N)C(=O)NC(C)C)n(CCCO)c3ncnc(N)c23)cc1 | cell-free assay, competition with immobilised ligand | – | 1 µM | – | remaining binding | 100%
NC(=O)[C@@H](O)C[C@H]1CCc2sc3ncnc(O[C@H]4CC[C@H](N5CCOCC5)CC4)c3c21 | enzyme activity, inhibitor | – | 10 µM | – | inhibition | 8%
COc1cc(Nc2nccc(-c3cnn4nc(OC)ccc34)n2)cc(C(F)(F)F)c1 | binding, competition with immobilised ligand | – | 1 µM | – | remaining binding | 77%
C=CC(=O)Nc1cc(-c2nn(C3CCN(CCNC(=O)[C@H](C)CCC45CC6CC(CC(C6)C4)C5)CC3)c3ncnc(N)c23)ccc1Oc1ccccc1 | inhibitor, KiNativ profiling | biochemical | 2 µM | – | inhibition | 32.1%
Nc1ncc2c(n1)-c1c([nH]c3ccc(C4=CCOCC4)cc13)CCC2 | binding, competition with immobilised ligand | – | 1 µM | – | remaining binding | 100%
C=CC(=O)N1CCc2ccc(-n3c(=O)ccc4cnc5ccc(-c6cnn(C)c6)cc5c43)cc21 | KINOMEscan | – | 1 µM | reference: DMSO control | remaining binding | 89%
NC(=O)C[C@H]1CCc2sc3ncnc(O[C@H]4CC[C@H](N5CCOCC5)CC4)c3c21 | enzyme activity, inhibitor | – | 10 µM | – | inhibition | -2%
CC(C)=CC1OC(C)(C)C2C=C3C(=O)C(Cl)=CC(O)C3C3C(O)C4OC4C(=O)C132 (centres unmarked) | cell-free assay, competition with immobilised ligand | – | 10 µM | – | remaining binding | 73%
C=CC(=O)N1CCCC(n2c(=O)c3ncccc3n(Cc3ccc(Oc4ccccc4)cc3)c2=O)C1 (centres unmarked) | cell-free assay, competition with immobilised ligand | – | 1 µM | – | remaining binding | 53%
COc1c(Cl)cccc1Nc1c(-c2ccncc2C#C[C@@]2(C)CCCN2C(=O)/C=C/CN(C)C)[nH]c2c1C(=O)NCC2 | binding, competition with immobilised ligand | – | 3 µM | – | remaining binding | 92%
CCN1CCN(Cc2ccc(C(=O)Nc3ccc(C)c(NCc4cnc5[nH]ccc5c4OC)c3)cc2C(F)(F)F)CC1 | binding, competition with immobilised ligand | – | 1 µM | – | remaining binding | 100%
CNC1C[S+]2CC[S+]3CC[S+](C1)[Ru-4]321([N]=C=S)[n]2c3ccc(OC)cc3c3c4c(c5cc(F)c[n+]1c5c32)C(=O)NC4=O (centres unmarked) | KinomeScan | – | 0.1 µM | reference: untreated | remaining binding | 56%
Cc1cnc2nc1Nc1cccc(c1)COC/C=C/COCc1cc(ccc1OCCN1CCOCC1)N2 | binding, competition with immobilised ligand | – | 0.1 µM | – | remaining binding | 86%
Nc1ncc(-c2cc(-c3cnn(CC(F)(F)F)c3)ncc2F)nc1C(=O)NC1CNCC(F)C1 (centres unmarked) | enzyme activity | – | 1 µM | reference: DMSO control | remaining activity | 110%
COc1cc(Nc2nc(C)cc(-c3cnn4nc(OC)ccc34)n2)cc(C(F)(F)F)c1 | inhibitor | – | 1 µM, OSR1 | reference: control | remaining activity | 83%
CNC(=O)C1CCN(c2cc(C)c(F)cc2NC(=O)c2ccc(-c3cc(O)ccc3C)c(C)c2)CC1 | binding, competition with immobilised ligand | – | 1 µM | – | remaining binding | 100%
O=C(Cc1ccc(OCc2ccccc2)cc1)NC1(C(=O)O)CCN(C(=O)c2ccc(-c3cccc(Cl)c3)cc2)CC1 | enzyme activity, inhibitor | – | 10 µM | – | activity vs control | 100%
